Assay results from different studies.
A part holds a random share of what one study measured. Values joined by “and” are separate records of one study, mostly repeats; a detail may differ.
UniProt Q14004, sequence (whole entry, looked up): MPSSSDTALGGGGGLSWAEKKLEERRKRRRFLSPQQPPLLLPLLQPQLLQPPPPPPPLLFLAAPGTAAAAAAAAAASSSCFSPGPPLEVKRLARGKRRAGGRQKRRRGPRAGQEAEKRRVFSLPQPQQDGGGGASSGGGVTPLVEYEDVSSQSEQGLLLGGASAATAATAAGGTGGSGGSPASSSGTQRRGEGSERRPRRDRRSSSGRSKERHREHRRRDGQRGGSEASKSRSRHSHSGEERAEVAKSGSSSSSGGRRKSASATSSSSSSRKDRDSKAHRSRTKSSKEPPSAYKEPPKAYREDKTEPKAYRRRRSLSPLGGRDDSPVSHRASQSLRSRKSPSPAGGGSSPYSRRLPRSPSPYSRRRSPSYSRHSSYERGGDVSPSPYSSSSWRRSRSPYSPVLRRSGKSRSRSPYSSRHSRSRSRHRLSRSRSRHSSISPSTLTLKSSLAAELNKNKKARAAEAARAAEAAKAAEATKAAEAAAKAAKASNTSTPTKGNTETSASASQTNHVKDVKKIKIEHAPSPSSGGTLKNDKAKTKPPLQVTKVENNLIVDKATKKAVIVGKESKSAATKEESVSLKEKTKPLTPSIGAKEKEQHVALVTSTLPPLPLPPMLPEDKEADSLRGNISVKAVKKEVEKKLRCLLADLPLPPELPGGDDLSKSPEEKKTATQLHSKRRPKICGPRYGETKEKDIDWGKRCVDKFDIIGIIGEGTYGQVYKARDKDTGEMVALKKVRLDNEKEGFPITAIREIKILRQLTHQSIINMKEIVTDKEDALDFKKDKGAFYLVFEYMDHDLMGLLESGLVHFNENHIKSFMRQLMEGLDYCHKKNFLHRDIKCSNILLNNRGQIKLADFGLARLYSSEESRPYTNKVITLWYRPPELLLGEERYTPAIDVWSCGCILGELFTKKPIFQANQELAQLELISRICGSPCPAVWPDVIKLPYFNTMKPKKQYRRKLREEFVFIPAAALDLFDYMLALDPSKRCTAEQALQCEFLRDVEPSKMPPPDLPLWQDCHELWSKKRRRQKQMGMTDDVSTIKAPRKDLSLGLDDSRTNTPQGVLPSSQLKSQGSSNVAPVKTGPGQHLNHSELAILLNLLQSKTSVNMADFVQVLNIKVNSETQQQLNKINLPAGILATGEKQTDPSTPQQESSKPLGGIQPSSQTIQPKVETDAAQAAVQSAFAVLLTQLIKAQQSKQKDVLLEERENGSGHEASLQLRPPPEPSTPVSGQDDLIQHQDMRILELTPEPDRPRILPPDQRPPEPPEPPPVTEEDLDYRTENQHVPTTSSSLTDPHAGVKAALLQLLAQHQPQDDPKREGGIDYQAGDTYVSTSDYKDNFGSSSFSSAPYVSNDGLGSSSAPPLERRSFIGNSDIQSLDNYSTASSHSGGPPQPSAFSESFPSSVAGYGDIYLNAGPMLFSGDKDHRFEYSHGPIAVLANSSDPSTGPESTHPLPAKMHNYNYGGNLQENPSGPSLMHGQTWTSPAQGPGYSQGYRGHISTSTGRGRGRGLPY

Set 1
Structure (SMILES): C[C@@H]1CN(c2ccc(-c3cc(C(=O)NCCOCCOCCOCCOCCNC(=O)/C=C/c4[nH]cc(C(=O)N[C@@H](CC(N)=O)c5ccc(F)c(Cl)c5)c4-c4ccc(Cl)cc4F)ccc3F)cc2NC(=O)c2c[nH]c(=O)cc2C(F)(F)F)C[C@H](C)N1C
Read-out: thermal unfolding
Method: differential scanning fluorimetry
Tested at: 5.5 µM
Reading: higher = more unfolded
WDR5: WD repeat-containing protein 5 (WDR5, Homo sapiens, UniProt P61964)
DCAF1: DDB1- and CUL4-associated factor 1 (DCAF1, Homo sapiens, UniProt Q9Y4B6)
UniProt Q9Y4B6, sequence (whole entry, looked up): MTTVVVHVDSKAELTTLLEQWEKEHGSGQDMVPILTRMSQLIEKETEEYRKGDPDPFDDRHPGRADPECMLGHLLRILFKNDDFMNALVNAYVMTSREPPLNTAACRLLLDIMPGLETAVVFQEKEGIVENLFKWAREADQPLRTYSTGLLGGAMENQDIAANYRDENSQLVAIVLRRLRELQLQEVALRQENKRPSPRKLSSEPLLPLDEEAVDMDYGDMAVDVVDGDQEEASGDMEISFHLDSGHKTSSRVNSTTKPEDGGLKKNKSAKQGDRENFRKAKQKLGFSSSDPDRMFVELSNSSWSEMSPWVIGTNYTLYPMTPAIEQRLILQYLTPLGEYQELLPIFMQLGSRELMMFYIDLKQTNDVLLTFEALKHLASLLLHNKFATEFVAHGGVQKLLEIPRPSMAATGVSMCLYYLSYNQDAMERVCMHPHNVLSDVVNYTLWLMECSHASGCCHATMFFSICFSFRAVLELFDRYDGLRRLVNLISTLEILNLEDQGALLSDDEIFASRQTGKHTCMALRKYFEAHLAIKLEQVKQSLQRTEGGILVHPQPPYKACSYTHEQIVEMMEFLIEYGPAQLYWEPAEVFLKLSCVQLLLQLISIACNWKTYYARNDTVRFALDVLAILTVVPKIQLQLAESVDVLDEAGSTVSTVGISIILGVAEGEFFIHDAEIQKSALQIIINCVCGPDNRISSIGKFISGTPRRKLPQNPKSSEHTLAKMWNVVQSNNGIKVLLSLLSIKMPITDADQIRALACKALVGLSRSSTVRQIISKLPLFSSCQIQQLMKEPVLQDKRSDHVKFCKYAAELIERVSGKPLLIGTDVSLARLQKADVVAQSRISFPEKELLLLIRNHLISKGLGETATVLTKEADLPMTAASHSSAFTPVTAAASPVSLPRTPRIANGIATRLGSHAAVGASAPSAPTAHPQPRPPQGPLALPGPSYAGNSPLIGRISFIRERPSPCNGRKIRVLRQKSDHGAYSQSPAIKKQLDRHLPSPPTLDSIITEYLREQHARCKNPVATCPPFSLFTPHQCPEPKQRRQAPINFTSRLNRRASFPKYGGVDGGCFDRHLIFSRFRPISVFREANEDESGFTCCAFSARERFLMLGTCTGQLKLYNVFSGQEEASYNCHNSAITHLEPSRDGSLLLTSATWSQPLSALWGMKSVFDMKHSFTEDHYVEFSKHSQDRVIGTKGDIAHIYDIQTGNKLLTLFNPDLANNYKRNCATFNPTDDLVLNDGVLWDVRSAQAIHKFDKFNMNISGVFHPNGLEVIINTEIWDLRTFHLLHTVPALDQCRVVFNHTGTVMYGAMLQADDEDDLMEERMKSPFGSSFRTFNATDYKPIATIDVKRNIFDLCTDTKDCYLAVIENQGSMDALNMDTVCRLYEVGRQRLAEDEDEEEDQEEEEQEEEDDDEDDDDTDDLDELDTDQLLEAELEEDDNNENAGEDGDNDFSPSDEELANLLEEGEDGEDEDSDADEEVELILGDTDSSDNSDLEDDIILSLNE
For WDR5; 42.4 °C: “SYPRO Orange fluorescence” read 15000 a.u.
For DCAF1; 49.8 °C: “SYPRO Orange fluorescence” read 15100 a.u.
The “SYPRO Orange fluorescence” was 21900 a.u. (DCAF1; 55.21 °C).
For WDR5; 58.41 °C: “SYPRO Orange fluorescence” read 16200 a.u.
DCAF1; 45 °C — “SYPRO Orange fluorescence”: 13000 a.u.
For WDR5; 35.4 °C: “SYPRO Orange fluorescence” read 13300 a.u.
The “SYPRO Orange fluorescence” was 40500 a.u. (DCAF1; 84.81 °C).
For WDR5; 92.61 °C: “SYPRO Orange fluorescence” read 47900 a.u.
It gave 24400 a.u. for “SYPRO Orange fluorescence” (WDR5; 74.41 °C).
DCAF1; 63.01 °C — “SYPRO Orange fluorescence”: 53900 a.u.
For DCAF1; 74.41 °C: “SYPRO Orange fluorescence” read 50700 a.u.

Set 2
SMILES: CN1CCC[C@H]1COc1nc2c(c(N3CCN(C(=O)C(F)(F)F)[C@@H](CC#N)C3)n1)CCN(c1cccc3cccc(Cl)c13)C2
Read-out: binding
Action: competitor
Method: NanoBRET
Cells: HEK293
KRAS Q61H: GTPase KRas (KRAS, Homo sapiens, UniProt P01116, Q61H)
For KRAS Q61H; 137 nM: normalized BRET read 86.3% and 91.1% and 96.4% and 95.4%.
GTPase KRas (KRAS, Homo sapiens, UniProt P01116, G13D); 33.3 µM — normalized BRET: 19% and 9.32% and 25.5% and 12.7%.
It gave 88.9% and 102% and 96.2% and 97.4% for normalized BRET (KRAS Q61H; 15.2 nM).
The normalized BRET was 109% and 98.9% and 100% (GTPase KRas (KRAS, Homo sapiens, UniProt P01116, G12D); 5.08 nM).
The normalized BRET was 101% and 96.8% and 98.7% and 91.1% (KRAS Q61H; 1.69 nM).
For KRAS Q61H; 5.08 nM: normalized BRET read 95.8% and 101% and 92%.

Mixed results
CDK12 with cyclin K: Cyclin-dependent kinase 12, with cyclin K (CDK12, Homo sapiens, UniProt Q9NYV4)
UniProt Q9NYV4, sequence (whole entry, looked up): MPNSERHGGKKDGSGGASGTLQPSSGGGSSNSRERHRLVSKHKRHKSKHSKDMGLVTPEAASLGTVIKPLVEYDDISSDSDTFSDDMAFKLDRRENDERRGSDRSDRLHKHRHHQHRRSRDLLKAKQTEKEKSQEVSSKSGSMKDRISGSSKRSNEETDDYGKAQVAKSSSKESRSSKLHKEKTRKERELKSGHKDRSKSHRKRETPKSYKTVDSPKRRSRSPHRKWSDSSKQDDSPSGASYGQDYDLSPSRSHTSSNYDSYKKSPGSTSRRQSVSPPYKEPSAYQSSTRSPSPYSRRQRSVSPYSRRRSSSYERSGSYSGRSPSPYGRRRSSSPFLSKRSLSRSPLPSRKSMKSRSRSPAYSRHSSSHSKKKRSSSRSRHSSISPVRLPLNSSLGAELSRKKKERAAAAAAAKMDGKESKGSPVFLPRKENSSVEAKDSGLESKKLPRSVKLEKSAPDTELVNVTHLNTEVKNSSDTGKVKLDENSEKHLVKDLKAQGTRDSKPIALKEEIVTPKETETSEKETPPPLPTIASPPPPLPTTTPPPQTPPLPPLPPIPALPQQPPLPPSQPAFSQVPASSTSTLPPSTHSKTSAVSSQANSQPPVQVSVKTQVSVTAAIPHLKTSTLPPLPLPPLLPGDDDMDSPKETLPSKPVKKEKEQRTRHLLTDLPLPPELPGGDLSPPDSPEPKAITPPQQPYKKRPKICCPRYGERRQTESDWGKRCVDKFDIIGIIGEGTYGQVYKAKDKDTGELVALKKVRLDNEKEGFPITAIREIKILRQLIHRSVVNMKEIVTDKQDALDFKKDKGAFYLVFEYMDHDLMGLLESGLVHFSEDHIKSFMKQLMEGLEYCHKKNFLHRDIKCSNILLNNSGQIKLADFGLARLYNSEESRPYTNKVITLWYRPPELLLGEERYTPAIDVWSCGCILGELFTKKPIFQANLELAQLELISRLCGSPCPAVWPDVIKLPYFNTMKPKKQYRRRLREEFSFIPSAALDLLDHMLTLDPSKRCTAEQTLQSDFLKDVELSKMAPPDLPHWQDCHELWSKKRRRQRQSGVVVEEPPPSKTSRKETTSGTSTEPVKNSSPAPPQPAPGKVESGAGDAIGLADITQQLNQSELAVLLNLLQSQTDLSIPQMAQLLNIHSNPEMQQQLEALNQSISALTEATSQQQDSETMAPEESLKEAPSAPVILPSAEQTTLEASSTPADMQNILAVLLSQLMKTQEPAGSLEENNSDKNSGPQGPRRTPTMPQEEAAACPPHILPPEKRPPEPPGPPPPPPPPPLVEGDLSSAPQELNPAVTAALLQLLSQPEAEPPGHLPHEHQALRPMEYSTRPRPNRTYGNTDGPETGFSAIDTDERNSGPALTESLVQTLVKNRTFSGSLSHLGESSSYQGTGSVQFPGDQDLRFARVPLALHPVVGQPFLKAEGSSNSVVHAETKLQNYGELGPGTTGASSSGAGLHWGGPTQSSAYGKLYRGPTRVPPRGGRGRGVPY
Under “protein level decrease”, `CCN(CC)CC(=O)N1CCN(c2nc(NCc3nc4cc(Cl)c(Cl)cc4[nH]3)c3ncn(CC)c3n2)CC1` is recorded as roughly 4 fold (Cyclin-dependent kinase 13 (CDK13, Homo sapiens, UniProt Q14004); degrader, DIA proteomics; MDA-MB-231; 100 nM, 2 h; reference: DMSO).
With `Cc1ncsc1-c1ccc(C2(NC(=O)C3CC(O)CN3C(=O)C(NC(=O)c3ccc(COc4c(-c5c(C)c(F)cc6[nH]ncc56)c(C5CC5)cc5c(N6CC7CC6CN7)nc(OC6CCOCC6)nc45)cc3)C(C)(C)C)CC2)cc1` (centres unmarked) the phospho-ERK1/2 level was 93.2% and 103% and 101% (AsPC-1; in-cell ELISA; 10 nM, per-experiment values).
`CCCCOc1nc(NCc2nc3cc(Cl)c(Cl)cc3[nH]2)c2ncn(CC)c2n1` gave an inhibition of 6.2% (CDK12 with cyclin K; kinase activity, inhibitor, ADP-Glo; 0.0027 µM).
The tumour volume of `Cc1ncsc1-c1ccc(C(CO)NC(=O)C2CC(O)CN2C(=O)C(C(C)C)n2cc(-c3ccc(COc4c(-c5c(C)c(F)cc6[nH]ncc56)c(C5CC5)cc5c(N6CC7CC6CN7)nc(OC6CCOCC6)nc45)cc3)nn2)cc1` (centres unmarked) is reported as 195 mm3 and 211 mm3 and 184 mm3 and 189 mm3 and 156 mm3 (ASPC1 xenograft, mouse; 30 mg/kg once weekly, day 11).
`CC(=O)N1CCN(c2nc(NCc3nc4cc(Cl)c(Cl)cc4[nH]3)c3ncn(C)c3n2)CC1` gave an inhibition of 5.5% (CDK12 with cyclin K; kinase activity, inhibitor, ADP-Glo; 0.0741 µM).
For `Cc1ncsc1-c1ccc(C(CO)NC(=O)C2CC(O)CN2C(=O)C(NC(=O)c2ccc(COc3c(-c4c(C)c(F)cc5[nH]ncc45)c(C4CC4)cc4c(N5CC6CC5CN6)nc(OC5CCOCC5)nc34)cc2)C(C)C)cc1` (centres unmarked), the phospho-ERK1/2 level was 11.2% and 13.9% and 5.89% (AsPC-1; in-cell ELISA; 10 µM, per-experiment values).
